# Measured values pooled from the literature.
# Parts stem from different laboratories: compare values within a part only. Substitutions count along the parent as printed.

# Set 1
# Target: CCNB1, cyclin fold, Cln2 fusion (human)
# Technique: yeast growth competition, sequencing
# Medium: yeast
# Setting: strong parent motif
# Relative to: not given
# Reading: higher = stronger binding
# Starting sequence: INSM1 docking peptide (human); PKAIRKLHFEDEV; partner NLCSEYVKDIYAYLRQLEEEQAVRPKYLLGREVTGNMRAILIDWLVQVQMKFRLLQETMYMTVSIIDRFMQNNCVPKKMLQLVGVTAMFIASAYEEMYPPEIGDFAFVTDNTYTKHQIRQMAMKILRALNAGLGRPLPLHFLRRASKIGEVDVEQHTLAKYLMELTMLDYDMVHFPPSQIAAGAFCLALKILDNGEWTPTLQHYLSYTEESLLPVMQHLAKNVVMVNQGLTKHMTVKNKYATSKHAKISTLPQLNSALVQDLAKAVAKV
Variant,normalised enrichment score
D11W,0.584
L7Q,-0.123
K6P,0.387
E12C,1.47
A3Q,0.32
K6I,0.465
A3P,1.69
E10M,1.14
F9W,1.03
E12N,1.2
R5K,1.78
L7R,0.561
K2E,3.78
K2H,2.76
K2V,3
L7I,0.888
I4G,0.148
E12F,1.1

# Set 2
# Target: RING finger protein unkempt homolog, zinc fingers 1-6, GST-SBP tag (UNK, Homo sapiens, UniProt Q9C0B0, residues 30-357)
# Sequence of UniProt Q9C0B0 (30-357, looked up): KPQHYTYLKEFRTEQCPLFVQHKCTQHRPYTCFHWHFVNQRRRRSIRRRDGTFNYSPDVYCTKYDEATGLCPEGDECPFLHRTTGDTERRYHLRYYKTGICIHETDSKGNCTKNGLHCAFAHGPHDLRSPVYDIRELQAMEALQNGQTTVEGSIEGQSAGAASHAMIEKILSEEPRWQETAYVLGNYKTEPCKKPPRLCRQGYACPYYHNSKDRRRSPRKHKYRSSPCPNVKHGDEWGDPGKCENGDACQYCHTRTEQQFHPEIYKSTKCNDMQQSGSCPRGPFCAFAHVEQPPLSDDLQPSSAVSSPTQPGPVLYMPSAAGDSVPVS
# Technique: RNA Bind-n-Seq
# Form: RNA
# Medium: in vitro
# Tested at: not given
# Setting: RNA with constant flanks, human and mouse sites, ends assumed
# Relative to: input RNA pool
# Reading: higher = stronger binding
# Constant ends, left off below: GGGAGUUCUACAGUCCGACGAUC … CAACAGAGGAUUGAGCAUCA
Sequence,bound/input enrichment
AUAUCUUCAGAAGAGGGAGAGACAGAAGCCAAUAACCCCAAGAAGUUGUCUGAUUUUGGAAUUAGAAACGGCAGCCGGCUUCAAGCAGACGACUUCCUCCAGGACUAUACUUUGCUGAUC,0.26 ratio
UCCCUAAAGAUCAUCGGGAGACUUCAUUGGAUUGACAGAGAAAAGCUUCGAAGUUUCAUCUUAGCGUGUCAAGAUGAAGAGACGGGAGGAUUUGCAGACAGACCAGGAGAUAUGGUGGAU,0.267 ratio
AAACUGAUCCGCUAUGUCACAGCCUUUGAUUUCUUCCUGGCAGCCUGUGAGAUCAUCUUUUGUUUCUUUAUCAUUUACUAUGUGGUGGAAGAGAUAUUGGAAAUUCGGAUUCACAGACUG,0.182 ratio
AUAAAGAUAUCUAGCCAAAAUCUCAAUCUUGCCUUAACAAUGUUUCAGAGACUGAAUAAAAUGUUUGUAGGCGAAGUCACUACUUCUUCCAGCCAAGAACCAGAAUUCAGUGAGAAAGAA,0.621 ratio
GUCAGCAAGACAUCUGUAUAGAUUCUGCUUCAUCCGUGAGAGAGAAUAAGCAACCUGAAGGUUUGGAAUUAAAACAAGGAAAAGGGGAAGAUAGUGAUGUACUCAGUAUAAAUGCAGAUG,0.761 ratio
GCUUCAUUCUGCCAUUCACUCACUGCAGCAUAUUCAAGAAUAAAGCAAUAUCGUUUACUACAUUUUUUAUUGAAGGUCAGCCAUGCUUUCUGUAUUAUAUUGCAUAUGAAAUUGUUUACA,0.59 ratio
AGUGAUAUUCAUUUGGCAGAACAUCAUAAACAGGUGUUAUAUGAUGGGAAACUUGCAAGUAGCAUUGCCUUUACAUAUAAUGCUAAGGCCACUGAUGCUCAGCUCUGCCUGGAAUCAUCA,0.203 ratio
UGUAGUCAGUGUGGAAGAGCCUUCAGCCAGAAGCAAUACCUCAUUAAACACCAGAAUAUCCAUAGUGGGAAGAAACCUUUUAAGUGUAAUGAGUGUGGUAAGGCUUUUAGCCAGAAAGAA,0.187 ratio
UUUCCACUAAAGCCUUUUGGAAAGCGGUGAUUUGAGGGGCAAGGUGCUUAGAGAUACUCGCUCGCUGGGGAAGGGGGGAGGGAGGCAGUGGUGGCUGGAGGGUGCGCCACUUUCAGAGCC,0.466 ratio
UUCUGGUUCAGAUCUGUGCCUUUGGCUGCAACAAGUAUGUUGAUUACUCAAGGAUUAAUUAGUAAAGGAAUACUUUCAAGUCAUCCCAAAUAUGGUUCCAUCCCUAAACUUAUACUUGCU,0.946 ratio
GGGGUCAGCAGCAGGAGAAGCGUGUUGAACACGUGGCUCUCAGACACUCCUUGUUUUUAACGGGAAGCUCUUUGCAUUUGCAUUUCCUCAACAAAGGAGCAAAGCAGAGGAAGCUGAGAG,0.148 ratio

# Set 3
# Molecule: PhoQ, residues 284 288 289 292 302 303 TNASYF
# Technique: Sort-seq
# Item: YFP reporter
# Medium: E. coli
# Setting: PhoQ-PhoP variant library
# Together with: 10 µM Mg2+
# Relative to: high Mg2+ state
# Reading: higher = stronger signaling
target,fold induction
"PhoP, residues 12 14 15 18 19 NYFRM (Escherichia coli, UniProt P23836)",1.71
"PhoP, residues 12 14 15 18 19 QYFSL (Escherichia coli, UniProt P23836)",13.9
"PhoP, residues 12 14 15 18 19 TQALL (Escherichia coli, UniProt P23836)",11.1

# Set 4
# Target: Histone acetyltransferase KAT6A, winged helix 1, GST fusion (KAT6A, Homo sapiens, UniProt Q92794, residues 1-85)
# Technique: protein binding microarray
# Form: double-stranded DNA, one strand shown
# Medium: in vitro
# Tested at: not given
# Setting: 8-mer, flanks averaged, mean of 2 arrays, mostly near background
# Relative to: not given
# Reading: higher = stronger binding
# Target sequence (chain): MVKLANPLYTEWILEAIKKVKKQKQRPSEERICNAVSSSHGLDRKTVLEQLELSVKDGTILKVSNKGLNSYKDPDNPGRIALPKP
Sequence,E-score
ACGACCCG,0.296
AACGACTC,-0.202
ATCCCTAG,-0.102
ACCCCGAA,0.071
CCAGATTA,-0.0951
CATCGGAC,0.0727
TATAGGGA,-0.0521
ACGACGTA,0.033
AATAAGAT,-0.131
GATGCAAA,-0.106
AGGCACCA,-0.108
AACTGTGC,-0.117
AACCTTAG,-0.0905
AACGTCGT,-0.0281
AGTCCCTC,-0.0948
AGAGTCCC,-0.044
ACCAACGT,-0.0713

# Repeated from above (set 4):
Sequence,E-score
AACGACTC,-0.202
ACCCCGAA,0.071
CATCGGAC,0.0727
